Measurements gathered from unrelated publications.
Every numbered part comes from another study and shows a few of its results, in no order. Substitutions count along the parent as printed.
Sequence of UniProt Q9Y2X8 (whole entry, looked up): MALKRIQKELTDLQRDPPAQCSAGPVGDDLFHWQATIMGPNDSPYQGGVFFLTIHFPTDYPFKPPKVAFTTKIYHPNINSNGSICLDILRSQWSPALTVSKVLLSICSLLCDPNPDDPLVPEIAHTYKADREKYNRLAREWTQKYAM

Series 1 — technique: DHFR PCA, dose-response; matrix: yeast; together with: (+)-ABA, dose series; reading: lower = more sensitive; endpoint: ABA EC50
Target: ABI1, truncated, D143A, DHFR fusion (Arabidopsis thaliana, UniProt P49597)
Setting: Hill fit, not affinity, not high confidence
Starting sequence: PYL1, truncated, DHFR fusion (Arabidopsis thaliana, UniProt Q8VZS8); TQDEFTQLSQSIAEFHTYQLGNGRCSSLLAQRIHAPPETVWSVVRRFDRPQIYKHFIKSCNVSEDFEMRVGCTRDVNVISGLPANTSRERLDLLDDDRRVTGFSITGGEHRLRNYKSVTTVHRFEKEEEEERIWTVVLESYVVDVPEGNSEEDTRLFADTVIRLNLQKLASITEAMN
D92P: 4.44 µM
V143E: 1.99 µM
V161L: 88 µM
V40K: 0.168 µM
L166T: 3.87 µM
V161W: 1.47 µM
S140A: 855 µM
E89S: 1730 µM

Series 2 — target: CCNE1, cyclin fold, Cln2 fusion (human); technique: yeast growth competition, sequencing; matrix: yeast; setting: strong parent motif; baseline: not given; reading: higher = stronger binding; endpoint: normalised enrichment score
Starting sequence: viral docking peptide; TSVRRALFTGGSD; partner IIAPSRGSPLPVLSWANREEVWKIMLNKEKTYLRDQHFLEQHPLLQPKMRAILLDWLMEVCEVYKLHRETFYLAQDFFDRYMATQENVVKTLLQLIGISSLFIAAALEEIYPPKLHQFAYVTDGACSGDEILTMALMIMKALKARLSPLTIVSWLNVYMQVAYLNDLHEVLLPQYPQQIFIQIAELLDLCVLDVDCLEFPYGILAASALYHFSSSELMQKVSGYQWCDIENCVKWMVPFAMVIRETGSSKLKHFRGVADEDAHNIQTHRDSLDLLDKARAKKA
TSVRAALFTGGSD [R5A]: 0.34
TSVRRALFTGCSD [G11C]: 5.74
TSDRRALFTGGSD [V3D]: 0.133
TSVRRAWFTGGSD [L7W]: 0.497
TSVMRALFTGGSD [R4M]: 1.86
TSVRRMLFTGGSD [A6M]: 4.84
TSVNRALFTGGSD [R4N]: 1.79
TSVRRALFTDGSD [G10D]: 6.31
TIVRRALFTGGSD [S2I]: 2.77
TSVRWALFTGGSD [R5W]: 0.549
TSVRRRLFTGGSD [A6R]: 7.36
TSVVRALFTGGSD [R4V]: 5.85
TSVRRALFTGYSD [G11Y]: 4.9
TSVRTALFTGGSD [R5T]: 0.148
TCVRRALFTGGSD [S2C]: 5.2
TSERRALFTGGSD [V3E]: 0.766
TSVQRALFTGGSD [R4Q]: 1.69

Series 3 — technique: RNA Bind-n-Seq; molecule type: RNA; matrix: in vitro; concentration: 200 nM; setting: whole 134-nt RNA, ends assumed; together with: 150 mM KCl; baseline: input library; reading: higher = stronger binding; endpoint: log2 enrichment
Target: Fragile X messenger ribonucleoprotein 1, C-terminal low-complexity region (Fmr1, Mus musculus, UniProt P35922)
Constant ends, left off below: GGGAGUUCUACAGUCCGACGAUC … UGGAAUUCUCGGGUGUCAAGG
CAAAGACAACACGCACCCACACAGACACAGAGGGAAGGGGUUGGGAUGGGGACAGGGUGCACAGCAGGGCGGGGUAGGACCCCAGCCCCU: 1.16
UCCUGUGCUACACAUCGUAUGUACCGAAUCGGGGCCCCCGGGCCCCCGGGGCCCCCGGGAAAGUAUUAUGUUACGCCGUUCGGAUCUGCA: -1.05
CACAGACAACACGCACCCACACAGACACAGAAAAAAGGGGUUGGGAUGGGGACAGGGUGCACAGCAGGGCGGGGUAGGACCCCAGCCCCU: 1.22
UCCUCAAGUCCUGUGCUACACAUCGUAUGUACCGAAUCGGAGGGGAGGAGGGAAAGUAUUAUGUUACGCCGUUCGGAUCUGCACUUCCAG: 0.301
GUCCUGUGCUACACAUCGUAUGUACCGAAUCGGGGUUUGGGGUUUUUGGGGUUUGGGGAAAGUAUUAUGUUACGCCGUUCGGAUCUGCAC: 0.919
CACAGACAACACGCACCCACACAGACACAGAGGGAAGGGGUUGGGAUGGGGACAGGGUGCACAGCAGGGCGGGGUAGGACCCCAGCCCCC: 1.32
AAGUCCUGUGCUACACAUCGUAUGUACCGAAUCGGAAAAAAAGGAGGUUUUUUUGGAAAGUAUUAUGUUACGCCGUUCGGAUCUGCACUU: -1.01
CACAGACAACACGCACCCACACAGACACAGAGGGAAGGGGUUGGGAUGGGGACAGGGUGCAUAGCAGGGCGGGGUAGGACCCCAGCCCCU: 1.18

Single results of other studies
HLA class I histocompatibility antigen, A alpha chain allele A*80:01: HLA class I histocompatibility antigen, A alpha chain, allele A*80:01 (Homo sapiens, UniProt P04439)
B1: RNF14 RING domain (UniProt Q9UBS8); chain IKCFNSKLFLCSICFCEKLGSECMYFLECRHVYCKACLKDYFEIQIRDGQVQCLNCPEPKCPSVATPGQVK
MEDCPNEGV — binding (HLA class I histocompatibility antigen, A alpha chain allele A*80:01; peptide-MHC binding; peptide; concentration not given): inactive
B1 (RNF14 RING domain) — lacZ reporter activity (UBE2D4 UBC core domain (UniProt Q9Y2X8); yeast two-hybrid; yeast; mostly zero background; baseline: not given, higher = stronger interaction): 0
NSNINVINY — binding (HLA class I histocompatibility antigen, A alpha chain allele A*80:01; peptide-MHC binding; peptide; concentration not given): inactive
GVPPKVVSY — binding (HLA class I histocompatibility antigen, A alpha chain allele A*80:01; peptide-MHC binding; peptide; concentration not given): inactive

Repeated from above (series 3):
CACAGACAACACGCACCCACACAGACACAGAAAAAAGGGGUUGGGAUGGGGACAGGGUGCACAGCAGGGCGGGGUAGGACCCCAGCCCCU: 1.22
CACAGACAACACGCACCCACACAGACACAGAGGGAAGGGGUUGGGAUGGGGACAGGGUGCACAGCAGGGCGGGGUAGGACCCCAGCCCCC: 1.32
CACAGACAACACGCACCCACACAGACACAGAGGGAAGGGGUUGGGAUGGGGACAGGGUGCAUAGCAGGGCGGGGUAGGACCCCAGCCCCU: 1.18
GUCCUGUGCUACACAUCGUAUGUACCGAAUCGGGGUUUGGGGUUUUUGGGGUUUGGGGAAAGUAUUAUGUUACGCCGUUCGGAUCUGCAC: 0.919
